Assay results gathered from unrelated publications.
Compare with care: the assays were run in different laboratories. Numbers after ± are the reported error.
Caspase-2 circularly permuted: Caspase-2, circularly permuted (Homo sapiens, UniProt P42575)
UniProt P42575, sequence (whole entry, unmodified, looked up): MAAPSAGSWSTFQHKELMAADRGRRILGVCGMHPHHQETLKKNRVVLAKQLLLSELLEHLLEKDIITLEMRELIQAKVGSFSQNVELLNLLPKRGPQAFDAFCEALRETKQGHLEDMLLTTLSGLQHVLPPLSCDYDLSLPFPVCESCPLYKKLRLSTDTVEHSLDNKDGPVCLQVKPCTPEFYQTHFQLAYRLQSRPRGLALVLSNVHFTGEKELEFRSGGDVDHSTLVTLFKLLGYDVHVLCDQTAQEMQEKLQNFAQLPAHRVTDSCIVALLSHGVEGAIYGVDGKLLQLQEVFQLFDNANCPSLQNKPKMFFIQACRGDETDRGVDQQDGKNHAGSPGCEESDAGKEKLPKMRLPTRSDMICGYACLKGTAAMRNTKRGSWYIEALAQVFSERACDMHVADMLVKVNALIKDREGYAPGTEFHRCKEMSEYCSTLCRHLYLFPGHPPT
UniProt P24385, sequence (whole entry, looked up): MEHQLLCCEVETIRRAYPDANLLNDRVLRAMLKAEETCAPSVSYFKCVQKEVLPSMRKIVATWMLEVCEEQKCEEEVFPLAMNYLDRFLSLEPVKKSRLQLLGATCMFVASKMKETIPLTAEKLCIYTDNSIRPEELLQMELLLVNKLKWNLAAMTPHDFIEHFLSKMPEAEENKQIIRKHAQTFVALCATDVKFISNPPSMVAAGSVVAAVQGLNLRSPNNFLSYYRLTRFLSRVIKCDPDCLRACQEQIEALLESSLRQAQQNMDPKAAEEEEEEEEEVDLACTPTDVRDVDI
UniProt P08684, sequence (whole entry, looked up): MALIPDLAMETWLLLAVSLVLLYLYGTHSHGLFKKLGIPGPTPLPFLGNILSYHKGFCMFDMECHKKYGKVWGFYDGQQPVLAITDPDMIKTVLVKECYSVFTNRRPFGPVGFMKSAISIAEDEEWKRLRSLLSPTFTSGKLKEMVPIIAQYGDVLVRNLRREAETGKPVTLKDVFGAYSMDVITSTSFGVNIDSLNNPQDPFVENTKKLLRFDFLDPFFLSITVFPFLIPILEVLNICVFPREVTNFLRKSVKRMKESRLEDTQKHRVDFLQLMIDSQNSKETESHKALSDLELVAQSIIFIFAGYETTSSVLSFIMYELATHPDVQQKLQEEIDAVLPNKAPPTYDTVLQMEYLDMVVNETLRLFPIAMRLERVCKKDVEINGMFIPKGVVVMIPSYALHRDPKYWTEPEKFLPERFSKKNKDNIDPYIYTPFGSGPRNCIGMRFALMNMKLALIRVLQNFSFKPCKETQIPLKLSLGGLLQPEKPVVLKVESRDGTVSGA
UniProt O95166, sequence (whole entry, looked up): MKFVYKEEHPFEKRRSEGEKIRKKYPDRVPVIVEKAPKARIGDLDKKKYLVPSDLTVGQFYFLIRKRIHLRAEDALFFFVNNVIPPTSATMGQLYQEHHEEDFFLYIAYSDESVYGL
UniProt Q08499, sequence (whole entry, looked up): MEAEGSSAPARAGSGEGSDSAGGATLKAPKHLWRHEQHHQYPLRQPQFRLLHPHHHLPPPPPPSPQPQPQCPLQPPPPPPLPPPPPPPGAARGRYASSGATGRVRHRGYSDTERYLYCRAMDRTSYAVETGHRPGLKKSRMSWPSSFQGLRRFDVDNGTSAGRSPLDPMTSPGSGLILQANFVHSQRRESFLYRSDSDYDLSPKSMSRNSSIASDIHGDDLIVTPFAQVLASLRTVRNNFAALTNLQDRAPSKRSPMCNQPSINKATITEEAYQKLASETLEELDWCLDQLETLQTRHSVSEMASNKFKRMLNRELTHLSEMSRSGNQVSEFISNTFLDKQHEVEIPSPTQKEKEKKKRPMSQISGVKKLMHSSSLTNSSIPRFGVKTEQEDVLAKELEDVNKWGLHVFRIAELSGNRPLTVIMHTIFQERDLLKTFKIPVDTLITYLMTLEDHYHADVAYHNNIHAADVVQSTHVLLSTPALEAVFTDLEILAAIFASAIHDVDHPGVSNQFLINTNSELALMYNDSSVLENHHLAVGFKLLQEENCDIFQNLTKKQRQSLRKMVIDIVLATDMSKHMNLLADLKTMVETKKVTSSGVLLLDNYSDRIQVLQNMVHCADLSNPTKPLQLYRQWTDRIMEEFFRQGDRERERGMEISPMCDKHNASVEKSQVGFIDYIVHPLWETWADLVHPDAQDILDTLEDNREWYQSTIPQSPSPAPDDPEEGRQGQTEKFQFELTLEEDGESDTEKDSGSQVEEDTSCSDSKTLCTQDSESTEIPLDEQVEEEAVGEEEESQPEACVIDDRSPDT
UniProt O60218, sequence (whole entry, looked up): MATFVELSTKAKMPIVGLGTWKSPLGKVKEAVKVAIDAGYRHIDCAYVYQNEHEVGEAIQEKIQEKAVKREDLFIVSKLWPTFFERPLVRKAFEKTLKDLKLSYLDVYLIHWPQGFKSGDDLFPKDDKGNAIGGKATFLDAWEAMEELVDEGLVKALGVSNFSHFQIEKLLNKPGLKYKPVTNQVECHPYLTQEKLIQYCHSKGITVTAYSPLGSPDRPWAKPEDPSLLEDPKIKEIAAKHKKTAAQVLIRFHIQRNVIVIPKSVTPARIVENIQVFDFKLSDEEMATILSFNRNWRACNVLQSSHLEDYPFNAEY
UniProt P45984, sequence (whole entry, looked up): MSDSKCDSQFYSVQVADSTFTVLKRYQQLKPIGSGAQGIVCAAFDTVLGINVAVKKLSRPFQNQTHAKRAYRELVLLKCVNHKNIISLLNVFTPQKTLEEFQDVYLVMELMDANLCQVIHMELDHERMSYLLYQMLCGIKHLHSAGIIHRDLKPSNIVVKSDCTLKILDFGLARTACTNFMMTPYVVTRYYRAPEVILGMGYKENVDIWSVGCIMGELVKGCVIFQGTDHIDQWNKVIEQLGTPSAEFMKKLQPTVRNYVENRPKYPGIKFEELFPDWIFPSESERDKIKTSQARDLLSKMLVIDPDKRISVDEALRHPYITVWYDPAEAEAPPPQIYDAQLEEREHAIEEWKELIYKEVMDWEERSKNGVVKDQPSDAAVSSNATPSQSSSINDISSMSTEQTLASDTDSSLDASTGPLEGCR
UniProt P22736, sequence (whole entry, looked up): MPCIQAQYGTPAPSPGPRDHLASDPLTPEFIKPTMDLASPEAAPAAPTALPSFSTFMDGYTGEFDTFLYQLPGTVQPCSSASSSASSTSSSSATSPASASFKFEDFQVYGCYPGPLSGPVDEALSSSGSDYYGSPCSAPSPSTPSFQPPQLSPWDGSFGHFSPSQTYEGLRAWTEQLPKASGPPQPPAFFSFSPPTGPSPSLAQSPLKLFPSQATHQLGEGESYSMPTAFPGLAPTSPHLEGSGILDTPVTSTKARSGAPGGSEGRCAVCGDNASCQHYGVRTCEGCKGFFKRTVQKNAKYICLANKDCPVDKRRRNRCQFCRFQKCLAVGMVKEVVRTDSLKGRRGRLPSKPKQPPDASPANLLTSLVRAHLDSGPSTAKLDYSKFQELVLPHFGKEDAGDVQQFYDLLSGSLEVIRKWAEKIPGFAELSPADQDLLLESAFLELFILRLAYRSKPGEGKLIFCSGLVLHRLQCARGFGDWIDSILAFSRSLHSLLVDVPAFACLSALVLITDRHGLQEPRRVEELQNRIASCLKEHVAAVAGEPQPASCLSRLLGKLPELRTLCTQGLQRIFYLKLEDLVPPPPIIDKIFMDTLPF
UniProt Q8NB78, sequence (whole entry, looked up): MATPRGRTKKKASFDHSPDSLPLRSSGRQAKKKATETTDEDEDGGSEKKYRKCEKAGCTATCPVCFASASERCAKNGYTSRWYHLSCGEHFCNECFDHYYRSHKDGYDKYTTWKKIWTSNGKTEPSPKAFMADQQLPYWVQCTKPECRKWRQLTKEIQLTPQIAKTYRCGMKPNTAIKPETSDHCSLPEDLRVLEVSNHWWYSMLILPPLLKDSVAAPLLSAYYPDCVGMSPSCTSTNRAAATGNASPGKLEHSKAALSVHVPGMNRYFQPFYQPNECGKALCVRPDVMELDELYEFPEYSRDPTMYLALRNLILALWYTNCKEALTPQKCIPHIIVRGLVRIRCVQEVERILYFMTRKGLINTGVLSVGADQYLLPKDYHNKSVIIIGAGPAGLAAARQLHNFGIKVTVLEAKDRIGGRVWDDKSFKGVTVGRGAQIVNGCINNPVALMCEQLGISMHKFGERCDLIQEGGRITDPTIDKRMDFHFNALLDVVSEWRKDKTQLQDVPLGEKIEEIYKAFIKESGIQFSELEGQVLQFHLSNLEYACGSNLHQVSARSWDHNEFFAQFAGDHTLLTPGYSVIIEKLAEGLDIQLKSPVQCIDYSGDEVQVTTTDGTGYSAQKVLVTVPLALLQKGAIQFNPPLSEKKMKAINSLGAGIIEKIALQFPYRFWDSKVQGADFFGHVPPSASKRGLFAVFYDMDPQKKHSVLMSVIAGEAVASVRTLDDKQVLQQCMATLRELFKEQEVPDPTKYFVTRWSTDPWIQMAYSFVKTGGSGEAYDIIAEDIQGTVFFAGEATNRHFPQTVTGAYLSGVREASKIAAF
UniProt P19643, sequence (whole entry, looked up): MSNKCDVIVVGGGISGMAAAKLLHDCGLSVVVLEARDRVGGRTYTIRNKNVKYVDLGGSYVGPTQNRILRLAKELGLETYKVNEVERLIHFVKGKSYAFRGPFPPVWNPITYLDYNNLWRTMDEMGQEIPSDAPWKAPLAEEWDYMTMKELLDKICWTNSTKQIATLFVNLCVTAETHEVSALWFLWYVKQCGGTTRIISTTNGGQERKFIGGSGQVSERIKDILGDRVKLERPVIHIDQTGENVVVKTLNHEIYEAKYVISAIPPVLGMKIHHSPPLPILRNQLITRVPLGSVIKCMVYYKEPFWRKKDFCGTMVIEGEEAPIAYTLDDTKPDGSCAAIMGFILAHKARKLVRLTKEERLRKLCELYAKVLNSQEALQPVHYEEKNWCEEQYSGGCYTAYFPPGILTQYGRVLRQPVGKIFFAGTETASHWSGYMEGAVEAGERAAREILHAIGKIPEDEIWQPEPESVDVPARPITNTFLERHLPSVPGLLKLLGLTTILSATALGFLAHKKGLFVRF

With `C=CC(=O)Nc1cc(Nc2nccc(-c3cn(C)c4ccccc34)n2)c(OCC(F)(F)F)nc1N(C)CCN(C)C` the IC50 was > 100 µM (Cytochrome P450 3A4 (CYP3A4, Homo sapiens, UniProt P08684); enzyme activity; human liver microsomes; added: midazolam, testosterone).
`CC1=C(O)C(=O)C=C2C1=CC=C1[C@@]2(C)CC[C@@]2(C)[C@@H]3C[C@](C)(C(=O)NCCOCCOCCOCCOCC(=O)N[C@H](C(=O)N4C[C@H](O)C[C@H]4C(=O)N[C@@H](C)c4ccc(-c5scnc5C)cc4)C(C)(C)C)CC[C@]3(C)CC[C@]12C` has a DC50 of 0.229 µM (Nuclear receptor subfamily 4 group A member 1 (NR4A1, Homo sapiens, UniProt P22736); degrader, immunoblotting; CHL-1; 16 h).
For `O=C1Nc2ccc(I)cc2C1=Cc1cc(Br)c(O)c(Br)c1`, the IC50 was 9.1 µM (Gamma-aminobutyric acid receptor-associated protein (Homo sapiens, UniProt O95166); binding to K1 peptide, inhibitor, AlphaScreen).
`CC(=O)N[C@@H](CC(=O)O)C(=O)N[C@@H](CCCNC(=N)N)C(=O)N[C@H](C(=O)N[C@H](C=O)CC(=O)O)[C@@H](C)O` has a Ki of 3.24 µM (Caspase-2 circularly permuted; enzyme activity, inhibitor; pH 6.5, 37 °C, added: Z-VDVAD-AFC).
With `CC[C@H](C)[C@H](NC(=O)[C@H](CC(C)C)NC(=O)[C@H](CCCNC(=N)N)NC(=O)c1ccc(CN2CCNCC2)cc1)C(=O)N[C@@H](Cc1ccccc1)C(N)=O` the IC50 was 11.7 ± 5.92 µM (G1/S-specific cyclin-D1, with CDK4 (Homo sapiens, UniProt P24385); binding to cyclin groove, inhibitor, fluorescence polarization competition).
With `CC(C)NCc1ccc(C[C@@H]2NC(=O)[C@@H](Cc3c[nH]c4ccccc34)NC(=O)[C@@H]3CCC(=O)NCCCCCC[C@H](NC(=O)[C@H](Cc4ccc(O)c(I)c4)NC(=O)[C@H]([C@@H](C)O)NC2=O)C(=O)N[C@@H](CO)C(=O)N[C@H](C(=O)O)CSSC[C@H](N)C(=O)N[C@@H](CCCCN)C(=O)N[C@@H](Cc2ccccc2)C(=O)N3)cc1` the IC50 was > 1 µM (SSTR2 (Homo sapiens, UniProt P30874); ligand displacement, radioligand; cell membranes).
For `Cn1c(=O)c(=O)n(C)c2cc(S(=O)(=O)Nc3ccc(S(=O)(=O)Nc4ncccn4)cc3)ccc21`, the IC50 was > 100 µM (DPP9 (Homo sapiens, UniProt Q86TI2); enzyme activity, inhibitor, fluorescence).
`Cc1ccc2oc(-c3c4c(N)n[nH]c(=O)c4nn3-c3ccc(NC(=O)/C=C/CN(C)C)cc3)c(C)c2c1` has an IC50 of > 1 µM (MAPK3 (Homo sapiens, UniProt P27361); enzyme activity, inhibitor, FRET).
`CC(C)C[C@H](NC(=O)[C@H](CC(N)=O)NC(=O)[C@H](CC(C)C)NC(=O)[C@@H](NC(=O)[C@@H](NC(=O)[C@@H]1CCCN1C(=O)[C@H](CCCNC(=N)N)NC(=O)[C@H](CCCCN)NC(=O)[C@@H]1CCCN1)[C@@H](C)O)[C@@H](C)O)C(=O)N[C@@H](Cc1ccccc1)C(N)=O` has an IC50 of 2 ± 0.15 µM (MAPK9 (Homo sapiens, UniProt P45984); kinase activity, inhibitor, radiometric; pH 7.5, 30 °C, added: GST-c-Jun substrate).
`O=C(Nc1ccccc1)Oc1ccc2c(c1)CCCN2C(=O)CCl` gave an IC50 of 0.7 µM (AKR1B10 (Homo sapiens, UniProt O60218); enzyme activity, inhibitor).
`COc1ccc(CCCN[C@@H]2CCC[C@H]2CN[C@H]2CCC[C@@H]2CNCCCCN[C@H]2CCC[C@@H]2CN)cc1` gave a Ki of 18 µM (KDM1B (Homo sapiens, UniProt Q8NB78); enzyme activity, inhibitor).
The tissue uptake of `[64Cu+2].c1ccc(CNCc2ccc(CN3CCCN4CCNCCCN(CC4)CC3)cc2)nc1` is reported as 58 ± 3.68 %ID/g (CXCR4; NOD/SCID mouse, U87 and U87-stb-CXCR4 xenografts, liver; iv, 90 min, no blocking dose, ex vivo).
`N[C@@H](Cc1c[nH]c2cccc(OCc3ccccc3)c12)C(=O)O` gave an IC50 of > 100 µM (SLC7A5 (Homo sapiens, UniProt Q01650); transporter uptake, inhibitor, radiometric).
The IC50 of `N=C(N)NCCCC(N)C(=O)NCC(=O)NC(CCCNC(=N)NCCCSCC1OC(n2cnc3c(N)ncnc32)C(O)C1O)C(N)=O` (stereo not drawn) is reported as > 100 µM (N-terminal Xaa-Pro-Lys N-methyltransferase 1 (Homo sapiens, UniProt Q9BV86); enzyme activity, inhibitor, fluorescence).
The IC50 of `O=C(O)c1cc(/N=N/c2ccccc2)c2ccccc2c1O` is reported as 5.2 µM (GLO1 (Homo sapiens, UniProt Q04760); enzyme activity, inhibitor).
With `CC(=O)N[C@@H](CC(=O)O)C(=O)N[C@@H](CCCNC(=N)N)C(=O)N[C@@H](C)C(=O)N[C@H](C=O)CC(=O)O` the Ki was 1.02 µM (Caspase-2 circularly permuted; enzyme activity, inhibitor; pH 6.5, 37 °C, added: Z-VDVAD-AFC).
`[64Cu+2].c1cnc(CNCc2ccc(CN3CCCN4CCNCCCN(CC4)CC3)cc2)nc1` has a tissue uptake of 7.89 ± 0.47 %ID/g (CXCR4; NOD/SCID mouse, U87 and U87-stb-CXCR4 xenografts, spleen; iv, 90 min, no blocking dose, ex vivo).
With `COc1cc(CNC(=O)C[C@H](C)CCC=C(C)C)ccc1OCc1cn(-c2ccc(Cl)c(Cl)c2)nn1` the growth percent was 74.8% (RXF 393; SRB; 10 µM, 48 h).
`O=C(O)c1ccc(-c2ccc(O)cc2)c2c1C=C(c1ccc(O)cc1)OC2(c1ccc(O)cc1)c1ccc(O)cc1` gave an IC50 of 0.04 µM (PDE4D (Homo sapiens, UniProt Q08499); enzyme activity, inhibitor, fluorescence).
`COc1ccc(C(=O)/C=C/c2ccc(O)cc2)c(O)c1CC=C(C)C` has an IC50 of 3.43 µM (Maob (Rattus norvegicus, UniProt P19643); inhibitor).
For `CCCCCCc1ccc(S(=O)(=O)N2CC2C(=O)N2CCCC2)cc1` (stereo not drawn), the IC50 was 112 µM (PDIA3 (Homo sapiens, UniProt P30101); enzyme activity, inhibitor, absorbance; pH 7.6).

Repeated from above:
`COc1ccc(CCCN[C@@H]2CCC[C@H]2CN[C@H]2CCC[C@@H]2CNCCCCN[C@H]2CCC[C@@H]2CN)cc1` gave a Ki of 18 µM (KDM1B (Homo sapiens, UniProt Q8NB78); enzyme activity, inhibitor).
The tissue uptake of `[64Cu+2].c1ccc(CNCc2ccc(CN3CCCN4CCNCCCN(CC4)CC3)cc2)nc1` is reported as 58 ± 3.68 %ID/g (CXCR4; NOD/SCID mouse, U87 and U87-stb-CXCR4 xenografts, liver; iv, 90 min, no blocking dose, ex vivo).
`N[C@@H](Cc1c[nH]c2cccc(OCc3ccccc3)c12)C(=O)O` gave an IC50 of > 100 µM (SLC7A5 (Homo sapiens, UniProt Q01650); transporter uptake, inhibitor, radiometric).
The IC50 of `N=C(N)NCCCC(N)C(=O)NCC(=O)NC(CCCNC(=N)NCCCSCC1OC(n2cnc3c(N)ncnc32)C(O)C1O)C(N)=O` (stereo not drawn) is reported as > 100 µM (N-terminal Xaa-Pro-Lys N-methyltransferase 1 (Homo sapiens, UniProt Q9BV86); enzyme activity, inhibitor, fluorescence).
